# Measured values of several laboratories.
# Parts stem from different laboratories: compare values within a part only. Substitutions count along the parent as printed.

# Series 1
# Target: RNA binding protein fox-1 homolog 2, RRM domain, GST-SBP tag (RBFOX2, Homo sapiens, UniProt O43251-10, residues 100-194)
# Method: RNA Bind-n-Seq
# Form: RNA
# Sample: in vitro
# Concentration: 365 nM
# Notes: natural RNA segment, single round, ends assumed
# Relative to: no-protein control
# Direction: higher = stronger binding
# All sequences stand within: GGGAGUUCUACAGUCCGACGAUC … UGGAAUUCUCGGGUGCCAA
# Target sequence (chain): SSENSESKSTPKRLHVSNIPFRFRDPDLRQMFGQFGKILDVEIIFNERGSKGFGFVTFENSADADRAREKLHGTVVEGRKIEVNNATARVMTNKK
Oligonucleotide,RBNS enrichment (R)
UUUAGAAGAUGCCAUACGUCGUGUGACAGCUCAUGAGCCUUUCACUGGGCUGGCAAUUGUCUGAACACUUGGGUUCAGUUGAAAUAUAUGUAUUUUGGCCAAAAGCCAGC,0.219
CCUCGCGCCUCAAAUCCCCCUACCCCGUGUGAACUCUAGGGCAUCGGACCUCAAGGGGUUAACUGGACAGACGGGGGGCGGGAGGGGAGAGCGCCCCCUCCCAUUGUAUA,0.615
CCAAUGCUGUAAAUAUGGGGAUAGUCUGGGUCAGGCCAAUCACUUCCUCUCUCACCCAUUUCGCUUCCAAGACCAUUUGUAGUGAGCGGGUGGAUGCUGUGCUACGUGUG,0.651
CUUUUGUUCCUAUUCAGGACUUGAGGUAUAGUGCCAUAAAAUGUAGCAAAAACCCUAUCGGCCAGAUCAGUGUUACAUUGAUUCUAAGAUUACAGUAUGUCCCAUCAAAC,0.15
ACCAUCCCUGAUGGCAGAACUCCCACAACCACAUGUAUUUAUUCCUCUGUCCUAAACCGUCCCCUCCUUCCCUCACCCCCAGCACAGGGGGAUUCUGAGCAGUGCCUCUU,1.08
UAAAAGUGAAAGCCCUCUGUCACGAAACAACAUGGGUGGUCCAAAGAUCAGGGGCAAGACAACUCAGCACACCUGGAACCCUUGGGGUCUUUAAGCAGCCGUGUCCAGGC,0.629
CAAACAGGAAGUGUUUUCAGGCCCUUACAUGCUUAUCCUUAAGGUGAGUAGGUAUCUCAGCAGCACACCCGAACAGUAAAGGUGAUCAAUAACGAAACUGUAGUUUUCAG,0.284
CAGUUUCUGGACCAUGUUAUCACCUGUGUGUGUCUCAUAUCUUGGAAAUUGACAGAUUUGGUGAAUAACUUUUCCAUACUAUUCCUGCUUUUCCCAUCCACUGAAACAGC,0.273
AUUAUUAAUAACAGUCAUGGCACACUGUGUCCUAUCUUAGCAUUUAAAAGUAUGCAAACUCCAGGUCAGCUUCAGUCAUUGAGUGCAGUCAUGACGUCAGACUCCAGAAU,0.262
AUUUUAAAGAUUUAUAUAAUGCUUUUGAACACUCUGAGAAAGGGUUGUUUUUUUUCAUUGGGUUAAUCUGUAUAUCUGAAUUCUUGAAGCUUUUCUCUAGCCUACAGUAG,0.323

# Series 2
# Target: CCNA1, cyclin fold, Cln2 fusion (human)
# Method: yeast growth competition, sequencing
# Sample: yeast
# Notes: weak parent motif
# Relative to: not given
# Direction: higher = stronger binding
# Parent: CDC25A docking peptide (human); PPHRRRLLFACSP; partner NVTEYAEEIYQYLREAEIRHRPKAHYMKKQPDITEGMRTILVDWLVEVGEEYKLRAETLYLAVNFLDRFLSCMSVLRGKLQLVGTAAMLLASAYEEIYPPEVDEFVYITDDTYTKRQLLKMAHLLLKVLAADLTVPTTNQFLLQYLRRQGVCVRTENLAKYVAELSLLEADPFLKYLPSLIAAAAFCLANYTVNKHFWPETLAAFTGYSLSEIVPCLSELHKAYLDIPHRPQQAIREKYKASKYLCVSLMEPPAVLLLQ
Change,normalised enrichment score
PPHRRRLLFPCSP [A10P],0.324
PPHRRRLLFACSM [P13M],-0.109
PYHRRRLLFACSP [P2Y],0.379
PPHRRRLIFACSP [L8I],0.356
PPHRRRLLGACSP [F9G],0.524
PPHRRRALFACSP [L7A],0.367
PPHRRRLLFNCSP [A10N],0.0791
PPQRRRLLFACSP [H3Q],0.119
PPHRRRLLNACSP [F9N],0.543

# Series 3
# Target: POU, POU domain (Salpingoeca helianthica)
# Method: Spec-seq
# Form: double-stranded DNA, one strand shown
# Sample: in vitro
# Concentration: not given
# Notes: whole probe, mean of replicates
# Relative to: not given
# Direction: lower = stronger binding
# All sequences stand within: GAGTCGTCTCGTCAGCAC … CCGTAGAGCACTCAGGTC
# Construct (chain): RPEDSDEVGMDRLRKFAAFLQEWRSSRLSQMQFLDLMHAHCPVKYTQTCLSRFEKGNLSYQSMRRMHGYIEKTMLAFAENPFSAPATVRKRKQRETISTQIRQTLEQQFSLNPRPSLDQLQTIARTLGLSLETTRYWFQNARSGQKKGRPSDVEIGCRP
Oligonucleotide,relative binding energy [ln ratio]
CCCCTAAT,0.701
ATGCACCG,1.36
AATTTAAT,-0.432
ATATTGAT,0.818
ATGCTACA,1.12
CCAGTAAT,0.766
GCTATAAT,0.208
CCGTTAAT,-0.279
ACGGTAAT,0.768
AGCCTAAT,0.893

# Single results of other studies
Molecule,target,assay,test system,conditions,how to read,measurement,value
"PhoQ, residues 284 288 289 292 302 303 TLSLKA","PhoP, residues 12 14 15 18 19 LWHSL (Escherichia coli, UniProt P23836)","Sort-seq, refers to: YFP reporter",E. coli,"PhoQ-PhoP variant library, together with: 10 µM Mg2+","relative to: high Mg2+ state, higher = stronger signaling",fold induction,0.598

# For quick reference, copied from above (series 2):
Change,normalised enrichment score
PPHRRRLLFPCSP [A10P],0.324
PPHRRRLLNACSP [F9N],0.543
